Published values pooled from the literature.
Lines come from different studies, so protocols differ.
T1: CREB1 1-100 (Rattus norvegicus); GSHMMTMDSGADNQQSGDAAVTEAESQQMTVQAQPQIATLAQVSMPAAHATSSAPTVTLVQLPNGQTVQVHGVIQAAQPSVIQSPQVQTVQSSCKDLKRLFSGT
B1: RAB32 T39N (Homo sapiens, UniProt Q13637); sequence looked up; chain MAGGGAGDPGLGAAAAPAPETREHLFKVLVIGELGVGKNSIIKRYVHQLFSQHYRATIGVDFALKVLNWDSRTLVRLQLWDIAGQERFGNMTRVYYKEAVGAFVVFDISRSSTFEAVLKWKSDLDSKVHLPNGSPIPAVLLANKCDQNKDSSQSPSQVDQFCKEHGFAGWFETSAKDNINIEEAARFLVEKILVNHQSFPNEENDVDKIKLDQETLRAENKSQCC
B2: lpxC 1-305 (Escherichia coli, UniProt P0A725); chain MIKQRTLKRIVQATGVGLHTGKKVTLTLRPAPANTGVIYRRTDLNPPVDFPADAKSVRDTMLCTCLVNEHDVRISTVEHLNAALAGLGIDNIVIEVNAPEIPIMDGSAAPFVYLLLDAGIDELNCAKKFVRIKETVRVEDGDKWAEFKPYNGFSLDFTIDFNHPAIDSSNQRYAMNFSADAFMRQISRARTFGFMRDIEYLQSRGLCLGGSFDCAIVVDDYRVLNEDGLRFEDEFVRHKMLDAIGDLFMCGHNIIGAFTAYKSGHALNNKLLQAVLAKQEAWEYVTFQDDAELPLAFKAPSAVLA
B3: ATG11 322-576 (Saccharomyces cerevisiae, UniProt Q12527); sequence looked up; chain MFTPNESKFELEDQMAESFEVLVSEMRTRSRNVLDKEEEEFNSQEFLKSMNVMLEKDKKESVKTLFTISQALYSQIGELIDLKKSLQKHAVAILGNIAFTQMEILGIKRLLLNECNKDLELYKKYEVEFAQVEDLPLIYGLYLIEKYRRLSWFQQILSFISNFNQDLELFKQNELRTRNKWVKNFGSIATVFCEDLLSSSDFKRLNEYHSHTSPPNEDEEDENENSIANYRQDLVKVSQAIDNYMTQIKETDVSE
B4: SIN4 1-974 (Saccharomyces cerevisiae, UniProt P32259); chain MMLGEHLMSWSKTGIIAYSDSQSSNANICLTFLESINGINWRFHTPQKYVLHPQLHEVQYQESSSTLSTHSTTTSVNGSTTAGVGSTPNFGGNSNKSPPQFFYNISSIHWNNWFSLPGDMLAVCDELGNMTMLITGQRPDRATTYEKLTMVFQDNVYKIYNHVMPLKPVDKLKPMNIERKQTRKEYNTSILEFRWLTSSKSVIVSQFCAFDSSSNTYRSRAQQVPPYGVYHPPFIKYACLAIRKNGQIDFWYQFSNSKDHKKITLQLLDTSNQRFKDLQWLEFARITPMNDDQCMLITTYSKLSKNISFYKLHVNWNLNATKPNVLNDPSLKIQFILSTTLDPTDDEGHVLKLENLHVVSKSSIEKDPSPEILVLYNVCDTSKSLVKRYRLAPTQLSAEYLVILKPDLNIDRNNSTNQIFQSRRYNLRRHSDIVLDKKVTLITSEMFDAFVSFYFEDGTIESYNQNDWKLETERLISQSQLGKFKNIIASPLSAGFNYGKLPLPPSVEWMKVSPSMCGVIVKQYNKKWPQFYAAVQKNYADPEKDSINATALAFGYVKSLHKQISAEDLTIAAKTHILRISFLDRKRAKEFITTLLKSLYSFFNISPDAPKEIMDKIITSRPLQKIMLLQLELGSCFSQENIEEMARVILYLKNVLFAFNGVARNFHFAIEQISNNSNQQQNPKLFQTIFSKQDLIHSLIPVAKWFVKFITYLTQEILILINDPTNKEYTLVHGIFGAKMSRTLILSILNEIKKVTQIVAKFPETSYPILNESSTFLKLVLSESPVDFEKFETFLVDVNNKFIALCEQQPSQEREFSLLVKAEIPPEYAKVGDFLLQYANNAVISHANAAAVYFADTSGLKISNSEFFNPEIFHLLQPLEEGLIIDTDKLPIKNRTSKSFSKLLYDDVTCDKLSVSEISDGKLKRCSRCGSVTRAGNIISSDKTIVPTSIQTKRWPTMYTRLCICSGMLFEMDG
B5: POLDIP2 52-368 (Homo sapiens, UniProt Q9Y2S7); sequence looked up; chain SSRNRPEGKVLETVGVFEVPKQNGKYETGQLFLHSIFGYRGVVLFPWQARLYDRDVASAAPEKAENPAGHGSKEVKGKTHTYYQVLIDARDCPHISQRSQTEAVTFLANHDDSRALYAIPGLDYVSHEDILPYTSTDQVPIQHELFERFLLYDQTKAPPFVARETLRAWQEKNHPWLELSDVHRETTENIRVTVIPFYMGMREAQNSHVYWWRYCIRLENLDSDVVQLRERHWRIFSLSGTLETVRGRGVVGREPVLSKEQPAFQYSSHVSLQASSGHMWGTFRFERPDGSHFDVRIPPFSLESNKDEKTPPSGLHW
B6: DMC1 (Saccharomyces cerevisiae, UniProt P25453); sequence looked up; chain MSVTGTEIDSDTAKNILSVDELQNYGINASDLQKLKSGGIYTVNTVLSTTRRHLCKIKGLSEVKVEKIKEAAGKIIQVGFIPATVQLDIRQRVYSLSTGSKQLDSILGGGIMTMSITEVFGEFRCGKTQMSHTLCVTTQLPREMGGGEGKVAYIDTEGTFRPERIKQIAEGYELDPESCLANVSYARALNSEHQMELVEQLGEELSSGDYRLIVVDSIMANFRVDYCGRGELSERQQKLNQHLFKLNRLAEEFNVAVFLTNQVQSDPGASALFASADGRKPIGGHVLAHASATRILLRKGRGDERVAKLQDSPDMPEKECVYVIGEKGITDSSD
B7: ckap5-a 1560-1839 (Xenopus laevis, UniProt Q9PT63); sequence looked up; chain SPHFDDMHSNTASTINFVISQVASVDINASIQALAQIDEVLRQEDKAEAMSGHIDQFLIATFMQLRLAYNTHMADERLDKDDIVRLYSCIIGNMISLFQMESLAREASTGVLKDLMHGLISLMLDARIEDLEEGQQVVRSVNLLVVKVLEKSDQTNIISALLMLLQDSLLATASSPNFSELVMKCLWRMIRLLPEAINNLNLDRILLDIHNFMRVLPKEKLKQHKSEMPMRTLKTLLHTLCKLKGPKIMDHLSMIENKHESELEAHLLRVMKHSIDRTGS
B8: acpP crypto-AcpP 1-78 (Escherichia coli, UniProt P0A6A8); Ser36 phosphopantetheine fluorophore analog; chain MSTIEERVKKIIGEQLGVKQEEVTNNASFVEDLGADSLDTVELVMALEEEFDTEIPDEEAEKITTVQAAIDYINGHQA
B9: SPTB 1397-2137 (human, UniProt P11277); 125I-iodinated; chain AMEDQLRSDDPGKDLTSVNRMLAKLKRVEDQVNVRKEELGELFAQVPSMGEEGGDADLSIEKRFLDLLEPLGRRKKQLESSRAKLQISRDLEDETLWVEERLPLAQSADYGTNLQTVQLFMKKNQTLQNEILGHTPRVEDVLQRGQQLVEAAEIDCQDLEERLGHLQSSWDRLREAAAGRLQRLRDANEAQQYYLDADEAEAWIGEQELYVISDEIPKDEEGAIVMLKRHLRQQRAVEDYGRNIKQLASRAQGLLSAGHPEGEQIIRLQGQVDKHYAGLKDVAEERKRKLENMYHLFQLKRETDDLEQWISEKELVASSPEMGQDFDHVTLLRDKFRDFARETGAIGQERVDNVNAFIERLIDAGHSEAATIAEWKDGLNEMWADLLELIDTRMQLLAASYDLHRYFYTGAEILGLIDEKHRELPEDVGLDASTAESFHRVHTAFERELHLLGVQVQQFQDVATRLQTAYAGEKAEAIQNKEQEVSAAWQALLDACAGRRTQLVDTADKFRFFSMARDLLSWMESIIRQIETQERPRDVSSVELLMKYHQGINAEIETRSKNFSACLELGESLLQRQHQASEEIREKLQQVMSRRKEMNEKWEARWERLRMLLEVCQFSRDASVAEAWLIAQEPYLASGDFGHTVDSVEKLIKRHEAFEKSTASWAERFAALEKPTTLELKERQIAERPAEETGPQEEEGETAGEAPVSHHAATERTSPVSLWSRLSSSWESLQPEPSHPY
B10: POMP (Homo sapiens, UniProt Q9Y244); chain MNARGLGSELKDSIPVTELSASGPFESHDLLRKGFSCVKNELLPSHPLELSEKNFQLNQDKMNFSTLRNIQGLFAPLKLQMEFKAVQQVQRLPFLSSSNLSLDVLRGNDETIGFEDILNDPSQSEVMGEPHLMVEYKLGLL
B11: CCDC93 305-433 (Homo sapiens, UniProt Q567U6); chain SPEKLGTSQLHRRKVISLNKQIAQKTKHLEELRASHTSLQARYNEAKKTLTELKTYSEKLDKEQAALEKIESKADPSILQNLRALVAMNENLKSQEQEFKAHCREEMTRLQQEIENLKAERAPRGDEKT
B12: pduQ (Salmonella enterica, UniProt Q9XDN0); sequence looked up; chain MNTFSLQTRLYSGQGSLAVLKRFTNKHIWIICDGFLAHSPLLDTLRNALPADNRISVFSEITPDPTIHTVVQGIAQMQALQPQVVIGFGGGSAMDAAKAIVWFSQQSGINIETCVAIPTTSGTGSEVTSACVISDPDKGIKYPLFNNALYPDMAILDPELVVSVPPQITANTGMDVLTHALEAWVSPRASDFTDALAEKAAKLVFQYLPTAVEKGDCVATRGKMHNASTLAGMAFSQAGLGLNHAIAHQLGGQFHLPHGLANALLLTTVIRFNAGVPRAAKRYARLAKACGFCPAEANDIAAINALIQQIELLKQRCVLPSLAVALKEGRSDFSARIPAMVQAALADVTLRTNPRPANAEAIRELLEELL
B13: TAF4 Q1 domain, 428-492 (Homo sapiens, UniProt O00268); chain GSHMTPTVLAPRLPQPPQNPTNIQNFQLPPGMVLVRSENGQLLMIPQQALAQMQAQAHAQPQTTMAPRP
B14: IGFBP7 30-159 (Homo sapiens, UniProt Q16270); chain DTCGPCEPASCPPLPPLGCLLGETRDACGCCPMCARGEGEPCGGGGAGRGYCAPGMECVKSRKRRKGKAGAAAGGPGVSGVCVCKSRYPVCGSDGTTYPSGCQLRAASQRAESRGEKAITQVSKGTCEQG
Sequence of UniProt P23258 (whole entry, looked up): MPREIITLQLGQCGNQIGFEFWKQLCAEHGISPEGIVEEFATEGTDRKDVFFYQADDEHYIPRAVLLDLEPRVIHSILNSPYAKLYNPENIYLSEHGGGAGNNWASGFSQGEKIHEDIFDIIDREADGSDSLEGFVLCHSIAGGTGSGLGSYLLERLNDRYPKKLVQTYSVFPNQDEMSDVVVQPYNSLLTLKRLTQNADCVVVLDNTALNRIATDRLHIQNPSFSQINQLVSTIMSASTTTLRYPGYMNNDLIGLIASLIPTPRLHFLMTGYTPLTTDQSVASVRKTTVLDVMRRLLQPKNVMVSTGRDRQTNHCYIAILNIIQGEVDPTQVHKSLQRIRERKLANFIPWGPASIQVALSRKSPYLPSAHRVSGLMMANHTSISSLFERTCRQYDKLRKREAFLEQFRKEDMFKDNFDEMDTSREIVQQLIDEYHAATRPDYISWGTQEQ
Sequence of UniProt P19263 (whole entry, looked up): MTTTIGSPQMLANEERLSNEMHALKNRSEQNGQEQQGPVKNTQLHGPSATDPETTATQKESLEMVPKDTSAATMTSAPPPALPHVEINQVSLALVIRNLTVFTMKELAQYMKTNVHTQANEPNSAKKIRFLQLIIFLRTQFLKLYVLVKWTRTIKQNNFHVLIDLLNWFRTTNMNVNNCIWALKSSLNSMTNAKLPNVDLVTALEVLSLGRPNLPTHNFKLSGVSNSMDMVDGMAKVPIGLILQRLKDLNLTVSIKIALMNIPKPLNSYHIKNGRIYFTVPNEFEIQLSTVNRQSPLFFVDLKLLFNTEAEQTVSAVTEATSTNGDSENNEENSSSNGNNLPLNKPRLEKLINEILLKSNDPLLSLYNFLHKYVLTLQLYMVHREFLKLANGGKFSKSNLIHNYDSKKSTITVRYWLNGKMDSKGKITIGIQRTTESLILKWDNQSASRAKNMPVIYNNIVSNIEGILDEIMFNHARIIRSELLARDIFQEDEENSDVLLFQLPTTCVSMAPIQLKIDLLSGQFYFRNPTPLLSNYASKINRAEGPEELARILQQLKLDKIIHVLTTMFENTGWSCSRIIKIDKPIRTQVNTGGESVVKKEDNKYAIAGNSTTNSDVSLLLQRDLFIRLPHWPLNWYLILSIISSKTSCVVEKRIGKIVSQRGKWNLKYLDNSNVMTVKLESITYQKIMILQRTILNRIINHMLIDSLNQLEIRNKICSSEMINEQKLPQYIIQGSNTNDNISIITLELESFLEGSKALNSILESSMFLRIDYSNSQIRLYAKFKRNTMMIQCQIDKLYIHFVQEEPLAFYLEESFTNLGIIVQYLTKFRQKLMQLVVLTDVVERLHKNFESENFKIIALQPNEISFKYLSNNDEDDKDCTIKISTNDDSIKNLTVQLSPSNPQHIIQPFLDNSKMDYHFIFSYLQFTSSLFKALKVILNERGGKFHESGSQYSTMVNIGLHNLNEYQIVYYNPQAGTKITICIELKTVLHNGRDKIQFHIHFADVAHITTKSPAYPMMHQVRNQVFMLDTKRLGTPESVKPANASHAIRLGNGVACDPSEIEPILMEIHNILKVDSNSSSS
Sequence of UniProt Q12142 (whole entry, looked up): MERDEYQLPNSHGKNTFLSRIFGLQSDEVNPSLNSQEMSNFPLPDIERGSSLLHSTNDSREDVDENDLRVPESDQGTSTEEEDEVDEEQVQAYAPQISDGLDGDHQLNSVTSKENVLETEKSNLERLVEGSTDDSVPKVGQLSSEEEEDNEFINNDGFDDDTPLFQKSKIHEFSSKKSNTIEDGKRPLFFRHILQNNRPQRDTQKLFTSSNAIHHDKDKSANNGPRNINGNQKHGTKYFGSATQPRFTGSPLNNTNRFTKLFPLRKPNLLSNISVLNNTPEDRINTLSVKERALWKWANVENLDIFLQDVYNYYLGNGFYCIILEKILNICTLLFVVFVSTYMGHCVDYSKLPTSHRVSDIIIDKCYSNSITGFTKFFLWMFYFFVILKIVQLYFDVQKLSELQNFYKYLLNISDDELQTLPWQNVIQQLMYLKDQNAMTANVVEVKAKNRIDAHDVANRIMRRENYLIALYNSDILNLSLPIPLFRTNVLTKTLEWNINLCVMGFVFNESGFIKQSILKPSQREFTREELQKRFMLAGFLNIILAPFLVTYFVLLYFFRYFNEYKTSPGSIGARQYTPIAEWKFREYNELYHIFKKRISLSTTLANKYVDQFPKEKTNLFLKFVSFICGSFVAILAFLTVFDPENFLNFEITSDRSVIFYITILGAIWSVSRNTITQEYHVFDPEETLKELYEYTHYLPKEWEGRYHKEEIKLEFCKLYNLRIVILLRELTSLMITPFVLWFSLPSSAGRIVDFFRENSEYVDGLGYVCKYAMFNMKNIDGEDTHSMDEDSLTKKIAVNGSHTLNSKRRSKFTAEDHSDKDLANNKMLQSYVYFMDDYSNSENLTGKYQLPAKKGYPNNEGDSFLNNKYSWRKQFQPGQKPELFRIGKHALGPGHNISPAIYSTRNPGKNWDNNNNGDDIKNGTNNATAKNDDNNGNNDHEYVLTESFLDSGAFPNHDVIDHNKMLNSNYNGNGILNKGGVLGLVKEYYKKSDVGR
Sequence of UniProt P20457 (whole entry, looked up): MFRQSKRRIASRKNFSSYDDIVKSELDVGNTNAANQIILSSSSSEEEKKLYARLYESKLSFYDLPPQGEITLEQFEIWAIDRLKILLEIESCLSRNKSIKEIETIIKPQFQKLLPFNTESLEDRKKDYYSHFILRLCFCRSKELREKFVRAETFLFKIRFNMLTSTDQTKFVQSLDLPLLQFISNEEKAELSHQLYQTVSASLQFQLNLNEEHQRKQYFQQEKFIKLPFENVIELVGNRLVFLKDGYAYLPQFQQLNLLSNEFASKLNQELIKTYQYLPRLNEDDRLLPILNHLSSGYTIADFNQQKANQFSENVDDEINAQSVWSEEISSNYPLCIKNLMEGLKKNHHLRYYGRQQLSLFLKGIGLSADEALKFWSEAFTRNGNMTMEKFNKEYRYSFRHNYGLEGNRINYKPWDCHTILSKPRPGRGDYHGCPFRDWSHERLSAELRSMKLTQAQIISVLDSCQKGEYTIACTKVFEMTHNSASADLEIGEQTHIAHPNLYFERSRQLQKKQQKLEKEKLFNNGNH
Sequence of UniProt P13382 (whole entry, looked up): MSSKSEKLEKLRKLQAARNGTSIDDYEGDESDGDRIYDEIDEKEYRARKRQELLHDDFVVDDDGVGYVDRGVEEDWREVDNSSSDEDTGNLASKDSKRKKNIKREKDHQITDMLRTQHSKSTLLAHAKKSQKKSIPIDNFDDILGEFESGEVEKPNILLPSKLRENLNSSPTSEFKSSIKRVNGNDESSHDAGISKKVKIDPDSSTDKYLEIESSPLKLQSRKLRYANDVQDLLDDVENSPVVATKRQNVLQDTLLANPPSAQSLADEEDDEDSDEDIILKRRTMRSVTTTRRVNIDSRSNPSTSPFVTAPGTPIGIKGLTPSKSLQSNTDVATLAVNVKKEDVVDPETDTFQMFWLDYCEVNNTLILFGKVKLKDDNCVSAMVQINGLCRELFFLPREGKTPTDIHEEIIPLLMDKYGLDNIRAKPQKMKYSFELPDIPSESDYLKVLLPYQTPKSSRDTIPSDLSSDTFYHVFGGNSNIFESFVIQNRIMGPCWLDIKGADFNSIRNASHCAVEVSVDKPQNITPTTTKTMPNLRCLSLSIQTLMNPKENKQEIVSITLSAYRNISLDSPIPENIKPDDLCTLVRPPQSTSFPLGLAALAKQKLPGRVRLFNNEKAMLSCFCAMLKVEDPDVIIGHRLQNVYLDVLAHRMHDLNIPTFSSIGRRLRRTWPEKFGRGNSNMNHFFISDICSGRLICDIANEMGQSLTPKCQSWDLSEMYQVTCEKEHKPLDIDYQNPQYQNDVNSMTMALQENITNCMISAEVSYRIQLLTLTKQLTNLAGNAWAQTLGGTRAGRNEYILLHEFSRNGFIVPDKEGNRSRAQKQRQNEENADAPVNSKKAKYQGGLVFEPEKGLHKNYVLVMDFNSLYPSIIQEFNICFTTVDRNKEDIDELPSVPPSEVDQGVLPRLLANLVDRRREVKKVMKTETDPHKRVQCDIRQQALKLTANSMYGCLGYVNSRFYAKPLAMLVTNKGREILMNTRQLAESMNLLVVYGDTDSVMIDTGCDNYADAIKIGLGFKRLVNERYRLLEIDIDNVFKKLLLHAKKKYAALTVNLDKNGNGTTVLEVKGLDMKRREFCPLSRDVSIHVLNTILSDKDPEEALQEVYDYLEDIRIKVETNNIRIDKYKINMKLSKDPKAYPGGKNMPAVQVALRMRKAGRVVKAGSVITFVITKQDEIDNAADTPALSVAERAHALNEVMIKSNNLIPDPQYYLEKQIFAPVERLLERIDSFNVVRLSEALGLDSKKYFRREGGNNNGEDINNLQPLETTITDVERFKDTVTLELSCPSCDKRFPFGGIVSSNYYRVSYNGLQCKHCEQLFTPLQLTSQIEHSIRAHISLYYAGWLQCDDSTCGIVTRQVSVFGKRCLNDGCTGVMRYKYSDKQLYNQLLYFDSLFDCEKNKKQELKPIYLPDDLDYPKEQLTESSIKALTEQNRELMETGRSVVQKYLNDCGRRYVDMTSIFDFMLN
Sequence of UniProt O95456 (whole entry, looked up): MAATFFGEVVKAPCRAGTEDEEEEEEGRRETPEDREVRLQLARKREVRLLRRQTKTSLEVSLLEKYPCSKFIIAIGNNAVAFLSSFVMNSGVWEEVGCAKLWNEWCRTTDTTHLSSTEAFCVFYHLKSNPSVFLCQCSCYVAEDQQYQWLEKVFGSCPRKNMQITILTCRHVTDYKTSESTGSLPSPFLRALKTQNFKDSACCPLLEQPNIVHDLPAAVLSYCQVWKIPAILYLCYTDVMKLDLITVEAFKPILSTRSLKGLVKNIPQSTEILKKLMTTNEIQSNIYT

Under binding, `B1 (RAB32 T39N)` is recorded as “binds” (OPTN (Homo sapiens, UniProt Q96CV9); pull-down).
`B2 (lpxC 1-305)`: binding “binds” (lapB 21-389 T154A (Escherichia coli, UniProt P0AB58); pull-down).
For `B3 (ATG11 322-576)`, binding read “binds” (ATG9 2-318 (Saccharomyces cerevisiae, UniProt Q12142); pull-down).
`B4 (SIN4 1-974)`: binding “binds” (RGR1 1-1082 (Saccharomyces cerevisiae, UniProt P19263); cryo-EM).
Under binding, `B5 (POLDIP2 52-368)` is recorded as “binds” (CLPX/CLPP CLPP 14-mer, CLPX hexamer, ATPγS-bound 65-633 (Homo sapiens); co-IP).
`B6 (DMC1)`: binding “binds” (MLH1/MLH3 (Saccharomyces cerevisiae); co-IP).
`B7 (ckap5-a 1560-1839)`: binding “binds” (TUBG1 (Homo sapiens, UniProt P23258); pull-down).
Under binding, `B8 (acpP crypto-AcpP 1-78)` is recorded as “binds” (entE 1-536 (Escherichia coli, UniProt P10378); fluorescence emission spectra, solvatochromic probe).
For `B9 (SPTB 1397-2137)`, binding read “binds” (ANK1 (Homo sapiens, UniProt P16157); co-sedimentation).
`B10 (POMP)` — result for binding: “binds” (PSMG1 (Homo sapiens, UniProt O95456); cryo-EM).
`B11 (CCDC93 305-433)`: binding “binds” (DENND10 (Homo sapiens, UniProt Q8TCE6); SEC).
`YQSAIKVEPASPPYYSEKTQL (PPARG residues 102-122 (Homo sapiens); N-acetyl, pS112)`: binding “binds” (PIN1 (Homo sapiens, UniProt Q13526); NMR; peptide).
For `B12 (pduQ)`, binding read “binds” (PduC/PduD/PduE (Salmonella enterica Typhimurium LT2); cross-linking).
Under binding, `B13 (TAF4 Q1 domain, 428-492)` is recorded as “binds” (T1, CREB1 1-100 (Rattus norvegicus); NMR).
Under binding, `PRI2 (Saccharomyces cerevisiae, UniProt P20457)` is recorded as “binds” (POL1 (Saccharomyces cerevisiae, UniProt P13382); cryo-EM).
Under binding, `DVLLLDVTPLS (HSPA9 interdomain linker, 434-444 (Homo sapiens))` is recorded as “binds” (HSPA9 NBD 52-431 Y128C (Homo sapiens, UniProt P38646); BLI; peptide; with: ADP).
`QDEKVKESYV` has a binding intensity of 0.768 (human MAGI1-3/6 PDZ construct (MBP fusion); automated holdup; peptide, purified PDZ protein; concentration not given, unit not given; baseline: biotin control resin, higher = stronger binding).
For `B14 (IGFBP7 30-159)`, binding read “binds” (CD93 25-347 L284A (Homo sapiens, UniProt Q9NPY3); ITC; 25 °C).

For quick reference, copied from above:
Under binding, `B13 (TAF4 Q1 domain, 428-492)` is recorded as “binds” (T1, CREB1 1-100 (Rattus norvegicus); NMR).
